Published values collected from several papers.
Lines come from different studies, so protocols differ. ± gives the spread as reported.

`Cn1nc2c(=O)n(C3CC3)cnc2c1[C@](O)(c1cnc(C(F)(F)F)c(Cl)c1)C(F)(F)F` gave a CLint,u of 12.7 mL/min/kg (rat Sprague-Dawley male, blood; intravenous, 1 mg/kg).
`COc1ncc(-c2nc3c(n2C(C)C)[C@H](c2ccc(Cl)cc2)N(c2cc(Cl)cn(C)c2=O)C3=O)c(OC)n1` gave a median Tmax of 3.2 h (human patients, plasma; oral, 12.5 mg, high-dose arm, cycle 1 day 1).
For `Cc1ccc(C(=O)N(CCCN)C(c2nc3snc(C)c3c(=O)n2Cc2ccccc2)C(C)C)cc1` (stereo not drawn), “patients with adverse event” read 25% (hypophosphataemia grade ≥3 (CTCAE); human patients; intravenous, 7 mg/day).
`O=C(Nc1nc2cccc(-c3ccc(CN4CCS(=O)(=O)CC4)cc3)n2n1)C1CC1`: “treatment-emergent adverse events” 0% (item: hypertension; human rheumatoid arthritis patients; oral, 150 mg once daily, 4 weeks, regardless of relatedness).
The plasma concentration of `Cc1ccc2c(c1)nc(/C=C/c1cccc3cccnc13)n2-c1cccc(OCCCN2CCN(C)CC2)c1` is reported as 0.498 ± 0.0389 µM (male Sprague-Dawley rat; oral, 10 mg/kg, 6 h).
`CN1C(=O)[C@@H](NC(=O)c2nnc(Cc3ccccc3)[nH]2)COc2cccnc21`: “participants with any TEAE” 66.7% (phase I single ascending dose; human, male and female; oral, 30 mg, fasted).
`COc1ccccc1OCCNCC(O)COc1cccc2[nH]c3ccccc3c12` (stereo not drawn) — result for “nucleation induction time”: 2.72 ± 0.09 min (0.2% w/v Kollidon VA64; pH 6.5, 37 °C, supersaturation ratio 5).
With `COc1ccc2c(c1)CN(C(=O)CCN1CCC(Cc3ccccc3)CC1)CC[S@@+]2[O-]` the PQ interval was 91 ± 10 ms (telemetry; conscious male beagle dogs; intravenous, 4 mg/kg, 24 h).
For `Cc1ccc([C@@H]2O[C@H](CO)[C@@H](O)[C@H](O)[C@H]2O)cc1Cc1ccc(-c2ccc(F)cc2)s1`, “urinary magnesium excretion change” read -5.67 mg (Japanese type 2 diabetes patients; 25 mg, day 6, 24 h urine collection; reference: baseline).
`C=CC(=O)Nc1cc(Nc2nccc(-c3cn(C)c4ccccc34)n2)c(OC)cc1N(C)CCN(C)C` has an oral clearance of 14.9 L/h (human patients, plasma; oral, median).
For `CCCCCCOC(=O)NC(=N)c1ccc(NCc2nc3cc(C(=O)N(CCC(=O)OCC)c4ccccn4)ccc3n2C)cc1`, “participants with TEAEs” read 25% (human; oral, 75 mg, compound alone).
`C[C@@H](O)[C@H](NC(=O)c1ccc(-c2ccc(Br)cc2)cc1)C(=O)NO` gave a logP of 0.91 (octanol/buffer; pH 11).
`NC1(C(=O)N[C@@H](CCO)c2ccc(Cl)cc2)CCN(c2nc[nH]c3nccc2-3)CC1`: “incidence of Fatigue” 0% (metastatic CRPC patients; 480 mg b.i.d., grade 3 to 4, treatment-related, added: enzalutamide 160 mg daily).
The CSF concentration of `Cn1c(=O)c2c(ncn2C)n(C)c1=O` is reported as 1350 nM (human, both sexes, cerebrospinal fluid; dose not given, mean).
`Cc1cc(NC2CCN(C(=O)OC3CCN(C(=O)/C=C/CN(C)C)C3)CC2)n2ncc(C(C)C)c2n1` (stereo not drawn) — result for “patients with Dizziness”: 0% (patients with advanced solid tumours; dose not given, QD arm, grade 3 or higher).
For `COc1cccc(OC)c1-c1cc(C(=O)NC2(C(=O)O)C3CC4CC(C3)CC2C4)nn1-c1ccc(C(=O)N(C)CCCN(C)CCCN(C)C(=O)CN2CCN(CC(=O)[O-])CCN(CC(=O)[O-])CCN(CC(=O)[O-])CC2)cc1C(C)C.[177Lu+3]` (stereo not drawn), the tissue uptake was 0.08 %ID/g (mouse HT-29 xenograft, large intestine; 168 h post injection, biodistribution).
`CC[N+]([O-])(CC)CCNC(=O)c1c(C)[nH]c(/C=C2\C(=O)Nc3ccc(F)cc32)c1C` gave a serum concentration of 0.41 ng/mL (human, serum; 37.5 mg maintenance dose).
For `CC1(CNC(=O)c2ccc(-c3ccc(Br)cc3)cc2)NC(=O)NC1=O` (stereo not drawn), the logP was 1.34 (octanol/buffer; pH 11).
`O=S(=O)(O)Oc1c(O)cccc1O` gave a CSF concentration of 2.1 nM (human, cerebrospinal fluid; concentration not given, median).
`CCCOc1ccc([C@H]2CNC(=O)N2c2ccc3[nH]cnc3c2)cc1` gave a CSF concentration of 24.4 ng/mL (human, elderly, fasted, cerebrospinal fluid; oral, 300 mg twice daily, capsule, 2 h after final dose, day 7, geometric mean).
`CN(C(=O)n1cnc(-c2cccnc2)c1)[C@H]1CC[C@H](O)CC1` gave a concentration of 14.3 ± 0.9 ng/g (Wistar rat, medulla oblongata; oral, 10 mg/kg of BIA 10-2474, 24 h, single dose).
The logP of `CCn1c(SCC(=O)Nc2cccc(OC)c2)nnc1-c1ccncc1` is reported as 1.94 (octanol/buffer; pH 11, known kinase inactives set).
`O=C(c1cccnc1-c1ccncc1)N1CCC(O)(Cc2ccccc2)CC1` gave an AUC(0-inf)/dose of 9.55 ng·h/mL/mg (healthy Japanese adults, plasma; oral, 1200 mg single dose).
With `O=C(OC(C(F)(F)F)C(F)(F)F)N1CCN(Cc2cccc(Oc3ccccc3)c2)CC1` the k2 was 0.138 min⁻¹ (PET blocking study; rhesus monkey, brain OCC; 0.3 mg/kg, compound pretreatment, added: [18F]T-401 tracer).
The AUC(0-t) of `COc1ccc2[nH]c([S+]([O-])Cc3ncc(C)c(OC)c3C)nc2c1` (stereo not drawn) is reported as 457 ± 337 ng·h/mL (healthy Chinese volunteers CYP2C19 NM, plasma; oral, 20 mg single dose, enteric-coated tablets).
`OC[C@H]1O[C@@H](c2ccc(Cl)c(Cc3ccc(O[C@H]4CCOC4)cc3)c2)[C@H](O)[C@@H](O)[C@@H]1O`: “change in Non-HDL cholesterol” -0.42 mg/dL (Japanese type 1 diabetes patients, blood; 10 mg, day 28; reference: baseline).
`O=C(N[C@H](Cc1c[nH]c2ccccc12)C(=O)Nc1ccncc1)c1ccc(-c2ccc(F)c(Cl)c2)cc1F` has a concentration of 52.6 µM (Swiss Webster mouse, female, intestine; oral, 50 mg/kg, 8 h, 20% Kolliphor vehicle).
Under “treatment-related adverse events”, `FC(F)(F)c1ccc(CNc2ccc(Cc3c[nH]c4ncc(Cl)cc34)cn2)cn1` is recorded as 0% (item: periorbital oedema; human, advanced solid tumours, non-TGCT cohort; oral, 1000 mg/day, grade 3 or higher).
The Vd/F of `Cn1c(=O)oc2ccc(-c3ccc(C[C@@H](C#N)NC(=O)[C@@H]4CNCCCO4)cc3)cc21` is reported as 492 L (human, severe renal impairment, plasma; oral, 25 mg single dose, mean).
`N#Cc1ccc2c(c1)[C@H]1CCCN(C(=O)c3ccc4[nH]cnc4c3)[C@H]1C2`: “total testosterone level” 14.7 nmol/L (human males; 360 mg, day 15).
The dose-normalised Cmax of `CCS(=O)(=O)Nc1ccc(Oc2ccc(F)cc2F)c(-c2cn(C)c(=O)c3[nH]ccc23)c1` is reported as 10.8 ng/mL/mg (human, plasma; oral, 2.5 mg, cycle 1 day 8, geometric mean).
`CC1(CNC(=O)c2ccc(C#CC#Cc3ccccc3)cc2)NC(=O)NC1=O` (stereo not drawn) has a logP of 2.4 (octanol/buffer; pH 11).
`Cc1cccc(CNC(=O)c2cn(CCNC(=O)c3ccccc3Sc3c([N+](=O)[O-])ncn3C)c3cc4c(cc3c2=O)OCO4)n1` gave a remaining compound of 99.8% (cynomolgus monkey, whole blood; 1 µM, 0.25 h).
`O=C1NCCc2nc(OCc3cccc(F)c3)ccc21` — result for “Irwin test score”: 0 (item: Piloerection; Sprague-Dawley rat male; oral, 100 mg/kg, 30 min; direction not given).
`C=CCN1CC(=O)N2[C@@H](Cc3ccc(O)cc3F)C(=O)N(Cc3cccc(N4CC(N5CCN(CC)CC5)C4)n3)C[C@@H]2N1C(=O)NCc1ccccc1` gave a treatment-related nausea of 0% (advanced solid tumour patients; oral, 15 mg twice daily, grade ≥3, dose-escalation).
With `C=CC(=O)Nc1cc(Nc2nccc(-c3cn(C)c4ccccc34)n2)c(OC)cc1N(C)CCN(C)C` the recovery was 68.9% (storage stability; human dried blood spot; 10 d, on ice, LLOQ level).
`CCc1cc(C(=O)NC)c2nccc(N3CCc4c(cc(Cn5ccnc5)cc4-c4cn(C)nc4C(F)(F)F)C3=O)c2c1` gave a body weight of 222 ± 9.2 g (Sprague Dawley rat; oral, 50 mg/kg once daily, day 1, 7-day toxicology study).
Under “participants with TEAE”, `Cc1ccc(Sc2ccccc2N2CCNCC2)c(C)c1` is recorded as 0% (item: haemoglobin decreased; healthy adult women; oral, 10 mg daily, 12 days).
With `N=C(N)c1ccc2cc(C#Cc3cccc(OC4CCCC4)c3)ccc2c1` the logP was 4.15 (octanol/buffer; pH 11, urokinase ligand set).
For `CNC(=O)c1ccc(-c2cnc3ncc(Cc4ccc5ncccc5c4)n3n2)cc1F`, “patients with adverse event” read 36% (item: Ascites, all grades; hepatocellular carcinoma patients; oral, 600 mg twice daily, expansion cohort, any causality).
The logP of `Cc1nc(C)c(-c2ccnc(Nc3ccc(N(C)C)c([N+](=O)[O-])c3)n2)s1` is reported as 4.07 (octanol/buffer; pH 11).
`CC(C)(C(=O)N1CCOc2c(C#N)cncc2C1)C(F)F`: “subjects with fatigue TEAE” 16.7% (human, both sexes; oral, 30 mg single dose).
For `O=C(Nc1cnccc1Cl)N1CCN(Cc2ccc3c(c2)OC(F)(F)O3)CC1`, “injection site pain incidence” read 0% (multiple ascending dose; elderly men and women; 100 mg, treatment-emergent adverse events).
`O=C(O)CCC(=O)O.[2H]C([2H])([2H])Oc1cc(C)c2[nH]ccc2c1CN1CC[C@@H](C2CC2)C[C@H]1c1ccc(C(=O)O)cc1` — result for “subjects with TEAE Diarrhea”: 12.5% (multiple ascending dose; healthy Chinese subjects; 100 mg twice daily).
With `C[C@@H](Oc1ccc(S(C)(=O)=O)cc1C(=O)N1C[C@@H]2C[C@]2(c2cc(C(F)(F)F)on2)C1)C(F)(F)F` the AUC(0-72 h) was 23.4 µM·h (young humans, plasma; oral, 75 mg single dose, geometric mean).
`CN[C@@H](C)C(=O)N[C@H]1CN(S(=O)(=O)c2cccc(S(=O)(=O)N3CC[C@H]4CC[C@@H](C(=O)NC(c5ccccc5)c5ccccc5)N4C(=O)[C@@H](NC(=O)[C@H](C)NC)C3)c2)CC[C@H]2CC[C@@H](C(=O)NC(c3ccccc3)c3ccccc3)N2C1=O` gave an AUC(0-t) of 558 ± 169 ng·h/mL (LC-MS/MS; human, advanced solid tumours, plasma; intravenous, 30 mg weekly, day 15).
`CCOc1c([C@H](C)n2nc(C)c3c(N)ncnc32)cc(Cl)c(F)c1[C@@H]1CNC(=O)C1` has an AUC(0-last) of 5.99 ± 2.65 µM·h (patients, monotherapy; oral, 20 mg once daily, cycle 1 day 1).
With `Cn1cc(-c2cn3nccc3c(-c3cnn([C@]4(CC#N)C[C@@H](C#N)C4)c3)n2)cn1` the dose-normalised AUC(0-t) was 21.3 ng·h/mL/mg (healthy humans fasted, plasma; oral, 30 mg single dose, geometric mean).
`Cc1cc(Nc2ccc(S(F)(F)(F)(F)F)cc2)n2nc(C(C)(F)F)nc2n1` — result for “adverse event Vomiting”: 9.1% (Plasmodium falciparum malaria patients; oral, 250 mg).
The osmolality of `OC[C@H]1OC(O)[C@H](O)[C@@H](O)[C@@H]1O` (stereo partly drawn) is reported as 0 mOsmol/kg (aqueous solution; 1 mM, added: glucosamine).
With `Nc1nc(NC2CC2)c2ncn([C@H]3C=C[C@@H](CO)C3)c2n1` the drug concentration was 1520 ± 184 ng/mL (Tat+ transgenic mouse, plasma; subcutaneous osmotic pump, dose not given, 5 d).
With `C=CC(=O)NC1CCN(c2ncc3ncnc(Nc4ccc(Oc5ccc6c(c5)ncn6C)c(C)c4)c3n2)CC1` the dose-normalised AUC(0-t) was 285 nmol·h/L/mg (healthy male volunteers, plasma; intravenous, 10 µg, [14C] microtracer).
With `CN1CCCC1CCNS(=O)(=O)c1ccc2c(c1)CN(CC1CCCCC1)CC2` (stereo not drawn) the concentration was 0.333 ng/mL (THY-Tau22 mouse, plasma; oral in diet, 0.0002% in diet, 6 months, sampled at 8 p.m.).
Under “decrease in clearance”, `COc1c(OCCCN2CCOCC2)ccc2c1N=C(NC(=O)c1cnc(N)nc1)N1CCN=C21` is recorded as 16.7% (human; reference: females over males).
`COc1ccnc(C(=O)NC(CO)C(=O)O)c1O` (racemic) has a DT50 water of 30.2 days (Swiss Lake sand sediment, aerobic dark; 20 °C).
Under “mean arterial pressure change”, `Cc1c(-c2ccc(N3CCc4cccc(C(=O)Nc5nc6ccccc6s5)c4C3)nc2C(=O)O)cnn1CC12CC3(C)CC(C)(C1)CC(OCCNCC[C@H](O)CO)(C3)C2` is recorded as -26% (beagle dog, male, anaesthetised; intravenous infusion, 0.3 mg/kg/min, 60 min; reference: vehicle).
`Nc1ncnc2c1ncn2[C@H]1C[C@@H]2OP(=O)(O)OC[C@H]3O[C@@H](n4cnc5c(N)ncnc54)C[C@@H]3OP(=O)(O)OC[C@H]2O1` gave a GGT of 1.23 ± 0.56 U/L (non-tumor-bearing mice, serum; intravenous, 1 mg/kg, toxicity study).

A few entries again:
The logP of `CCn1c(SCC(=O)Nc2cccc(OC)c2)nnc1-c1ccncc1` is reported as 1.94 (octanol/buffer; pH 11, known kinase inactives set).
Under “treatment-related adverse events”, `FC(F)(F)c1ccc(CNc2ccc(Cc3c[nH]c4ncc(Cl)cc34)cn2)cn1` is recorded as 0% (item: periorbital oedema; human, advanced solid tumours, non-TGCT cohort; oral, 1000 mg/day, grade 3 or higher).
`O=C(c1cccnc1-c1ccncc1)N1CCC(O)(Cc2ccccc2)CC1` gave an AUC(0-inf)/dose of 9.55 ng·h/mL/mg (healthy Japanese adults, plasma; oral, 1200 mg single dose).
`O=C(N[C@H](Cc1c[nH]c2ccccc12)C(=O)Nc1ccncc1)c1ccc(-c2ccc(F)c(Cl)c2)cc1F` has a concentration of 52.6 µM (Swiss Webster mouse, female, intestine; oral, 50 mg/kg, 8 h, 20% Kolliphor vehicle).
With `C[C@@H](Oc1ccc(S(C)(=O)=O)cc1C(=O)N1C[C@@H]2C[C@]2(c2cc(C(F)(F)F)on2)C1)C(F)(F)F` the AUC(0-72 h) was 23.4 µM·h (young humans, plasma; oral, 75 mg single dose, geometric mean).
For `Cc1ccc([C@@H]2O[C@H](CO)[C@@H](O)[C@H](O)[C@H]2O)cc1Cc1ccc(-c2ccc(F)cc2)s1`, “urinary magnesium excretion change” read -5.67 mg (Japanese type 2 diabetes patients; 25 mg, day 6, 24 h urine collection; reference: baseline).
